Results gathered from unrelated publications.
Each numbered part is a random draw from the data of one study; scales do not carry over between parts. Several values in a cell are separate wells, animals, samples, runs or records. pIC50: −log10 of the molar value.
Sequence of UniProt Q6P2M8 (whole entry, looked up): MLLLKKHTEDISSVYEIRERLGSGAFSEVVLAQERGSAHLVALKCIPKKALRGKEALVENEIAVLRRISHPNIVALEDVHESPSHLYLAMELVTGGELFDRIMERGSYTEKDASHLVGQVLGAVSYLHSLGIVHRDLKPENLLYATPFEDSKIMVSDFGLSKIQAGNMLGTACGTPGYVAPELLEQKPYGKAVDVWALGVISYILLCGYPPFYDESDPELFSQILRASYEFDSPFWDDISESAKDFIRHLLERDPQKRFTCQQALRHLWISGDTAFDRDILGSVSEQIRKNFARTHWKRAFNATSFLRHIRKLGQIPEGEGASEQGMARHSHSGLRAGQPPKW
Sequence of UniProt P00742 (whole entry, looked up): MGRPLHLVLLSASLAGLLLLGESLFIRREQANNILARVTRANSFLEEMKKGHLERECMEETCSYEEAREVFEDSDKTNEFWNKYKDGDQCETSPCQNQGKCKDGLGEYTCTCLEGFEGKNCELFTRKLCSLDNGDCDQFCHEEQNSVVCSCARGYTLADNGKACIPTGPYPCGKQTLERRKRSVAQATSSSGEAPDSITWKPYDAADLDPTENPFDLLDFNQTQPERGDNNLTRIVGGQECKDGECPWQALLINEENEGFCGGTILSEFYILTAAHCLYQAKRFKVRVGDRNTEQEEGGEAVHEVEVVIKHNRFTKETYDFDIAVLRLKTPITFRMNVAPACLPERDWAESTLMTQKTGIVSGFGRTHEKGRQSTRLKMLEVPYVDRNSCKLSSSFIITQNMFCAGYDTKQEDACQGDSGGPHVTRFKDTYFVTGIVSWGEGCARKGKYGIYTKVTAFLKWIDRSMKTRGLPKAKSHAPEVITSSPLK
Sequence of UniProt P06493 (whole entry, looked up): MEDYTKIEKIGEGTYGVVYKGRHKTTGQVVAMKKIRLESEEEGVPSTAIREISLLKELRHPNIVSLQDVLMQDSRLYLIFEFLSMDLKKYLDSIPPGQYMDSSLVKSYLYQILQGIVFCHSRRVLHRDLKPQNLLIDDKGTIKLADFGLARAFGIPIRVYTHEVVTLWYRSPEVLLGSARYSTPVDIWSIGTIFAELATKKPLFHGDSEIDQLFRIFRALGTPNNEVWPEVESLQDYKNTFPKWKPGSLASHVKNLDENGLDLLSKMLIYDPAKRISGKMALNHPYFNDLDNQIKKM
Sequence of UniProt P20231 (whole entry, looked up): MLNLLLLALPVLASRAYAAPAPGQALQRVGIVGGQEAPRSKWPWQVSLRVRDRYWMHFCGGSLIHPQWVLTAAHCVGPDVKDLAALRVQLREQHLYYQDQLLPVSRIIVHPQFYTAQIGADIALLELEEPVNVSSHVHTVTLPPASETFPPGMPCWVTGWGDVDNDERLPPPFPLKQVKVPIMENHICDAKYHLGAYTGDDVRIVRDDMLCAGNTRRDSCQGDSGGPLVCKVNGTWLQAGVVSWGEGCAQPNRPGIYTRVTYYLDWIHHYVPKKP
Sequence of UniProt Q9NRR2 (whole entry, looked up): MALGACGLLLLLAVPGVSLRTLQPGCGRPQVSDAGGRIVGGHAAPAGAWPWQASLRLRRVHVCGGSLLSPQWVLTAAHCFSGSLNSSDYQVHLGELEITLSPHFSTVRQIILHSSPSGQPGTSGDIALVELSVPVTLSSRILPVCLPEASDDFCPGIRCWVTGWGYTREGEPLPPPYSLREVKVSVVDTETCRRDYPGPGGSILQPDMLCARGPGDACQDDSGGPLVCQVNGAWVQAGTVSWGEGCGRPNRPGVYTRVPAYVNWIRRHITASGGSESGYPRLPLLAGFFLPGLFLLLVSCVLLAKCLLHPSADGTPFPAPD
Sequence of UniProt Q13976 (whole entry, looked up): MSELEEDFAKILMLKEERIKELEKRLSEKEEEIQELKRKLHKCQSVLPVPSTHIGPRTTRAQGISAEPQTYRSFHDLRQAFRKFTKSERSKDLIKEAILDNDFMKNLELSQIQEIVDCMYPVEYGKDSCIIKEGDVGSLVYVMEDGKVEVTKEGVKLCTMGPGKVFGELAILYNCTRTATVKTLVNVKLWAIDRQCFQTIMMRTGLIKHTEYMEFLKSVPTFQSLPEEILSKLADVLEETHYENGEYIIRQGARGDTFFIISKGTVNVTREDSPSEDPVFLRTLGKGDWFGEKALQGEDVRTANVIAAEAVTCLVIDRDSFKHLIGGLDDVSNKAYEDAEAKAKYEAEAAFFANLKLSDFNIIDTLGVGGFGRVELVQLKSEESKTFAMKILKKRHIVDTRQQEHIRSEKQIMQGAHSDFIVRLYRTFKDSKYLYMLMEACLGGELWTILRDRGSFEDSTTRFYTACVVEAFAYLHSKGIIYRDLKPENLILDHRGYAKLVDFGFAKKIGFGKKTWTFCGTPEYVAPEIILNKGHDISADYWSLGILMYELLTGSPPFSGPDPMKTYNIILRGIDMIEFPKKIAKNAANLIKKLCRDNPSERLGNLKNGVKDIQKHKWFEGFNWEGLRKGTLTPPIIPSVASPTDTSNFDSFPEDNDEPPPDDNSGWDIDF
Sequence of UniProt P03952 (whole entry, looked up): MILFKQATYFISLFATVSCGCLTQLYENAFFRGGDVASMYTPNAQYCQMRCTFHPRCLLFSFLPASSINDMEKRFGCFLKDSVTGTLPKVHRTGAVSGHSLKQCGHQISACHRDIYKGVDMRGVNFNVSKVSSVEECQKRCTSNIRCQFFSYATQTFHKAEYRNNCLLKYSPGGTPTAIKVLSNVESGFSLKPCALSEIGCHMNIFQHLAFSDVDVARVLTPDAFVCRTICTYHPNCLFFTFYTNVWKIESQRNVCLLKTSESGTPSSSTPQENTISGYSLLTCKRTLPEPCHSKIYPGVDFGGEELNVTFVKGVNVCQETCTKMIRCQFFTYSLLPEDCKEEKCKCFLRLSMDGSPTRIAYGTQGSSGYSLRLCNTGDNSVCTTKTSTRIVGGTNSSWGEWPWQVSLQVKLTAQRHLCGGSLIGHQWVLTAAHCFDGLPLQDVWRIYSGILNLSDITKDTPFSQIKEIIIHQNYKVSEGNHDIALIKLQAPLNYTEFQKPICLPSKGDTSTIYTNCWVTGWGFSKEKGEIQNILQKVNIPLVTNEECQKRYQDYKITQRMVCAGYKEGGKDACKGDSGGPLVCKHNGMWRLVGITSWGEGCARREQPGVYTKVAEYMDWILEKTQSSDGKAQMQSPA
Sequence of UniProt P00747 (whole entry, looked up): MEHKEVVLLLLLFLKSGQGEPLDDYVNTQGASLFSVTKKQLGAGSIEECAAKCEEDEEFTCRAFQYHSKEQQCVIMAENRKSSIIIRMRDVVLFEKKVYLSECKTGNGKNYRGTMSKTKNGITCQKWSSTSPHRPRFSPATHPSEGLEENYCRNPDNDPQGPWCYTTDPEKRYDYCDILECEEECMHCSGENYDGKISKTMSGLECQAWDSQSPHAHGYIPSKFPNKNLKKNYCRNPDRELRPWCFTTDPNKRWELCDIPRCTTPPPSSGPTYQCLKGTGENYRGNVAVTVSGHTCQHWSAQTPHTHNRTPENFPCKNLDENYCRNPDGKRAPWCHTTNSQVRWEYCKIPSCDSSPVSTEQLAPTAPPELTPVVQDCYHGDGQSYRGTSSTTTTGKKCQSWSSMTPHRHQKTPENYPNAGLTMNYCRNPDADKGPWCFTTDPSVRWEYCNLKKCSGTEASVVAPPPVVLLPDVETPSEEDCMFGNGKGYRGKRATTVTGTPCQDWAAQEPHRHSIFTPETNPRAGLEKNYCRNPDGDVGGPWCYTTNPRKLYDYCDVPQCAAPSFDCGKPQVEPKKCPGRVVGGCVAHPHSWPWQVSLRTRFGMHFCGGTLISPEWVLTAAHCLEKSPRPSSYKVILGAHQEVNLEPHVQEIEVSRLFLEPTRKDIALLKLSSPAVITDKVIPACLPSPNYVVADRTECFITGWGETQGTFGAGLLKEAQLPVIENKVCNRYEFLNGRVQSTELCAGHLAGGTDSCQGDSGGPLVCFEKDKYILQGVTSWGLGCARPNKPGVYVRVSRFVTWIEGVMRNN
Sequence of UniProt P07948 (whole entry, looked up): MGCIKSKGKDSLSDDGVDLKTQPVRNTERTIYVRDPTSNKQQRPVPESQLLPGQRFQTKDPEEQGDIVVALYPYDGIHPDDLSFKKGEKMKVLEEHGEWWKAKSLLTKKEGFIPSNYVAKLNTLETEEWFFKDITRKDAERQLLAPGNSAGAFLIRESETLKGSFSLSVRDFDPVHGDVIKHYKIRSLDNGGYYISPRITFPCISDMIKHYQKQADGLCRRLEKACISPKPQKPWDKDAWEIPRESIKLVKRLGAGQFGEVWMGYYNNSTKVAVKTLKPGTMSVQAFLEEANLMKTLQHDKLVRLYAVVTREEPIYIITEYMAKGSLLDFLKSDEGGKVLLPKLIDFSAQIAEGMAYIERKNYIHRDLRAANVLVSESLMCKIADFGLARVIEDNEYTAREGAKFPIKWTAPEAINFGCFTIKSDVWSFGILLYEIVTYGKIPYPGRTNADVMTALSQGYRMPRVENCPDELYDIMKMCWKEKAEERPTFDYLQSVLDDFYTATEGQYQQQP
Sequence of UniProt Q9P0G3 (whole entry, looked up): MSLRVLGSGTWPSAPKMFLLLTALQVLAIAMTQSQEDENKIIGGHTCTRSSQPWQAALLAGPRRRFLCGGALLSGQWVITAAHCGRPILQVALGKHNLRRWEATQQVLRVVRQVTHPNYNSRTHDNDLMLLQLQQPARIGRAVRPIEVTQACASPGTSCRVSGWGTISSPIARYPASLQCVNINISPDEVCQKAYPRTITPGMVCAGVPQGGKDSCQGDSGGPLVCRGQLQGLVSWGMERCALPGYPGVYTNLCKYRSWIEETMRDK

Study 1
Cell line: HEK-293T-ACE2-TMPRSS2
Technique: cell count
Tested at: concentration not given
CC(Oc1ccc(-n2cnc(-c3ccccc3)c2)cc1)C(N)=O (centres unmarked) has a viability of 68%.
Cc1ccsc1C(=O)N1CCN2C(=O)CNC(=O)C2C1 (centres unmarked) has a viability of 106%.
With CC(NCCC(c1ccccc1)c1ccco1)c1ccc(Cl)cc1 (centres unmarked) the viability was 199%.
For Cc1ccc2[nH]c(CCc3cccc(NC(=O)C4CCCN(S(=O)(=O)N5CCCC5)C4)c3)nc2c1 (centres unmarked), the viability was 75%.
For CC(=O)C1=C(c2ccc(C(C)(C)C)cc2)N(C(C)=O)n2cnnc2S1, the viability was 65%.
COc1ccc(C(=O)N2CCCC2)c(OC2CCN(C3Cc4ccccc4C3)CC2)c1 has a viability of 110%.
Cc1cc(C(=O)N2CCC3(CCCN(CCCc4ccccc4)C3=O)C2)n[nH]1 (centres unmarked) has a viability of 110%.
For O=C(CC1C(=O)NCCN1Cc1ccccc1C(F)(F)F)NCCn1cccn1 (centres unmarked), the viability was 102%.
For CSC1=NNC(c2ccccn2)S1 (centres unmarked), the viability was 67%.
The viability of COc1cccc2c1C(=O)c1c(O)c3c(c(O)c1C2=O)C[C@@](O)(C(=O)CO)C[C@@H]3O[C@H]1C[C@H](N)C(O)[C@H](C)O1 (some centres unmarked) is reported as 69%.
Cc1ccc(CN(C)C(=O)CC(c2ccccc2)c2ccc3c(c2)OCO3)o1 (centres unmarked) has a viability of 106%.
CCN(c1ccc2sc(C(=O)Nc3ccc(C)c(Cl)c3)cc2c1)S(C)(=O)=O gave a viability of 78%.
CCOC(=O)C1(CCCc2ccccc2)CCN(C(=O)c2cnsn2)CC1 has a viability of 107%.
O=C(NC1CC(=O)N(CCCc2ccccc2)C1)c1ccncc1 (centres unmarked) has a viability of 110%.
COc1cccc(N2CCN(c3ncc4c(n3)CC(c3ccccc3O)CC4=O)CC2)c1 (centres unmarked) has a viability of 65%.
For CC(=O)c1cccc(NC(=O)c2cc3cc(N(C)S(=O)(=O)c4ccc(C)cc4)ccc3s2)c1, the viability was 70%.

Study 2
SMILES: O=C1CCC(N2Cc3c(ccc4c3OCC43CCN(Cc4ccccc4)CC3)C2=O)C(=O)N1 (centres unmarked)
Medium: plasma
It gave 405 ng·h/mL for AUC(0-t) (mouse, ICR, male; intravenous, 1.0 mg/kg).
It gave 776 ng·h/mL for AUC(0-t) (male Sprague Dawley rats; intravenous, 1.0 mg/kg).
For male Sprague Dawley rats; oral, 3.0 mg/kg: AUC(0-t) read 997 ng·h/mL.
The AUC(0-t) was 1320 ng·h/mL (male CD-1 mouse; oral, 3 mg/kg).
The AUC(0-t) was 393 ng·h/mL and 428 ng·h/mL (male ICR mice; intravenous, 1.0 mg/kg).
The AUC(0-t) was 408 ng·h/mL (male CD-1 mouse; intravenous, 1 mg/kg).
The AUC(0-t) was 1110 ng·h/mL (male Sprague-Dawley rat; oral, 3 mg/kg).
It gave 753 ng·h/mL for AUC(0-t) (male Sprague-Dawley rat; intravenous, 1 mg/kg).

Study 3
Structure (SMILES): CCOC(=O)c1ccc(OC(=O)CCCCCNC(=N)N)cc1
It gave 5.68 for pIC50 (F10 (Homo sapiens, UniProt P00742)).
Plasma kallikrein (KLKB1, Homo sapiens, UniProt P03952) — pIC50: 6.95.
The pIC50 was 8.01 (Tryptase gamma (Homo sapiens, UniProt Q9NRR2)).
It gave 5.81 for pIC50 (Prothrombin (F2, Homo sapiens, UniProt P00734)).
The pIC50 was 6.50 (Kallikrein-14 (Homo sapiens, UniProt Q9P0G3)).
It gave 8.34 for pIC50 (Tryptase beta-2 (TPSB2, Homo sapiens, UniProt P20231)).
Plasminogen (PLG, Homo sapiens, UniProt P00747) — pIC50: 6.64.

Study 4
Structure (SMILES): CC(C)(C)c1cc(C=C(C#N)C#N)cc(Br)c1O
Observed: enzyme activity
Action: inhibitor
Tested at: 0.5 µM
GRK3 (Homo sapiens, UniProt P35626) — remaining activity: 98%.
It gave 102% for remaining activity (Protein kinase C beta type, isoform beta-I (PRKCB, Homo sapiens, UniProt P05771); relative to: control).
For Tyrosine-protein kinase Lyn, isoform B (LYN, Homo sapiens, UniProt P07948); relative to: control: remaining activity read 113%.
It gave 107% for remaining activity (PNCK (Homo sapiens, UniProt Q6P2M8)).
It gave 102% for remaining activity (PRKACA (Homo sapiens, UniProt P17612); relative to: control).
It gave 87.8% for remaining activity (Cyclin-dependent kinase 1, with cyclin A (CDK1, Homo sapiens, UniProt P06493)).
cGMP-dependent protein kinase 1, isoform beta (PRKG1, Homo sapiens, UniProt Q13976); relative to: control — remaining activity: 107%.
